Assay results pooled from the literature.
Compare with care: the assays were run in different laboratories. Values joined by “and” are separate records of one study, mostly repeats; a detail may differ. ± gives the spread as reported.
CDK5 with p25: Cyclin-dependent kinase 5, with p25 (CDK5, Homo sapiens, UniProt Q00535)
UniProt Q00535, sequence (whole entry, looked up): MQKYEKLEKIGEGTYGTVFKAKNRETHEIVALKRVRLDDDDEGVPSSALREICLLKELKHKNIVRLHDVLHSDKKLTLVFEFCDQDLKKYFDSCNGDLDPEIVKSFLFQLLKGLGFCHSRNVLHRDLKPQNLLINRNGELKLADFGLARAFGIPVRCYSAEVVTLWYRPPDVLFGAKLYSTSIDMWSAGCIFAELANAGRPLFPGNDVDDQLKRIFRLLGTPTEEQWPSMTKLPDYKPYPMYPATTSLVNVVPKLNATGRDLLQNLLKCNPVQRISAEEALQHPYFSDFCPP
B1: human desmocollin-1; sequence looked up; chain RWAPIPASLMENSLGPFPQHVQQIQSDAAQNYTIFYSISGPGVDKEPFNLFYIEKDTGDIFCTRSIDREKYEQFALYGYATTADGYAPEYPLPLIIKIEDDNDNAPYFEHRVTIFTVPENCRSGTSVGKVTATDLDEPDTLHTRLKYKILQQIPDHPKHFSIHPDTGVITTTTPFLDREKCDTYQLIMEVRDMGGQPFGLFNTGTITISLEDENDNPPSFTETSYVTEVEENRIDVEILRMKVQDQDLPNTPHSKAVYKILQGNENGNFIISTDPNTNEGVLCVVKPLNYEVNRQVILQVGVINEAQFSKAASSQTPTMCTTTVTVKIIDSDEGPECHPPVKVIQSQDGFPAGQELLGYKALDPEISSGEGLRYQKLGDEDNWFEINQHTGDLRTLKVLDRESKFVKNNQYNISVVAVDAVGRSCTGTLVVHLDDYNDHAPQIDKEVTICQNNEDFAVLKPVDPDGPENGPPFQFFLDNSASKNWNIEEKDGKTAILRQRQNLDYNYYSVPIQIKDRHGLVATHMLTVRVCDCSTPSECRMKDKSTRDVRPNVILGRWAILAMVLGSVLLLCILFTCFCVTAKRTVKKCFPEDIAQQNLIVSNTEGPGEEVTEANIRLPMQTSNICDTSMSVGTVGGQGIKTQQSFEMVKGGYTLDSNKGGGHQTLESVKGVGQGDTGRYAYTDWQSFTQPRLGEKVYLCGQDEEHKHCEDYVCSYNYEGKGSLAGSVGCCSDRQEEEGLEFLDHLEPKFRTLAKTCIKK
UniProt Q64663, sequence (whole entry, unmodified, looked up): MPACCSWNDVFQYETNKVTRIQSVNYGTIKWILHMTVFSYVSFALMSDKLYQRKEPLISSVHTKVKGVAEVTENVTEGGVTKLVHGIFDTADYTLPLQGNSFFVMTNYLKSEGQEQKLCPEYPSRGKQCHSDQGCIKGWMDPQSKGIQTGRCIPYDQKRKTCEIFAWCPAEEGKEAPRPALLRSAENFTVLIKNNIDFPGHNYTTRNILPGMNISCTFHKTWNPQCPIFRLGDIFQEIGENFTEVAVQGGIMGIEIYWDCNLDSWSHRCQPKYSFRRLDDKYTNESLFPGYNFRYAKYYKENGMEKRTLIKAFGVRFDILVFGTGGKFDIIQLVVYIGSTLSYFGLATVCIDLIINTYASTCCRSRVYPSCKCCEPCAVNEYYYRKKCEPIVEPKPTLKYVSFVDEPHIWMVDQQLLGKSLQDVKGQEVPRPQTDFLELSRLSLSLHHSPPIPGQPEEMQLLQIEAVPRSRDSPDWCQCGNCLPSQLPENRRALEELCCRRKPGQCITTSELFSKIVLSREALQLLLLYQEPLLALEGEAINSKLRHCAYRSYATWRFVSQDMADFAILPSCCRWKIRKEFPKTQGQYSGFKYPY
UniProt Q5ANA3, sequence (whole entry, looked up): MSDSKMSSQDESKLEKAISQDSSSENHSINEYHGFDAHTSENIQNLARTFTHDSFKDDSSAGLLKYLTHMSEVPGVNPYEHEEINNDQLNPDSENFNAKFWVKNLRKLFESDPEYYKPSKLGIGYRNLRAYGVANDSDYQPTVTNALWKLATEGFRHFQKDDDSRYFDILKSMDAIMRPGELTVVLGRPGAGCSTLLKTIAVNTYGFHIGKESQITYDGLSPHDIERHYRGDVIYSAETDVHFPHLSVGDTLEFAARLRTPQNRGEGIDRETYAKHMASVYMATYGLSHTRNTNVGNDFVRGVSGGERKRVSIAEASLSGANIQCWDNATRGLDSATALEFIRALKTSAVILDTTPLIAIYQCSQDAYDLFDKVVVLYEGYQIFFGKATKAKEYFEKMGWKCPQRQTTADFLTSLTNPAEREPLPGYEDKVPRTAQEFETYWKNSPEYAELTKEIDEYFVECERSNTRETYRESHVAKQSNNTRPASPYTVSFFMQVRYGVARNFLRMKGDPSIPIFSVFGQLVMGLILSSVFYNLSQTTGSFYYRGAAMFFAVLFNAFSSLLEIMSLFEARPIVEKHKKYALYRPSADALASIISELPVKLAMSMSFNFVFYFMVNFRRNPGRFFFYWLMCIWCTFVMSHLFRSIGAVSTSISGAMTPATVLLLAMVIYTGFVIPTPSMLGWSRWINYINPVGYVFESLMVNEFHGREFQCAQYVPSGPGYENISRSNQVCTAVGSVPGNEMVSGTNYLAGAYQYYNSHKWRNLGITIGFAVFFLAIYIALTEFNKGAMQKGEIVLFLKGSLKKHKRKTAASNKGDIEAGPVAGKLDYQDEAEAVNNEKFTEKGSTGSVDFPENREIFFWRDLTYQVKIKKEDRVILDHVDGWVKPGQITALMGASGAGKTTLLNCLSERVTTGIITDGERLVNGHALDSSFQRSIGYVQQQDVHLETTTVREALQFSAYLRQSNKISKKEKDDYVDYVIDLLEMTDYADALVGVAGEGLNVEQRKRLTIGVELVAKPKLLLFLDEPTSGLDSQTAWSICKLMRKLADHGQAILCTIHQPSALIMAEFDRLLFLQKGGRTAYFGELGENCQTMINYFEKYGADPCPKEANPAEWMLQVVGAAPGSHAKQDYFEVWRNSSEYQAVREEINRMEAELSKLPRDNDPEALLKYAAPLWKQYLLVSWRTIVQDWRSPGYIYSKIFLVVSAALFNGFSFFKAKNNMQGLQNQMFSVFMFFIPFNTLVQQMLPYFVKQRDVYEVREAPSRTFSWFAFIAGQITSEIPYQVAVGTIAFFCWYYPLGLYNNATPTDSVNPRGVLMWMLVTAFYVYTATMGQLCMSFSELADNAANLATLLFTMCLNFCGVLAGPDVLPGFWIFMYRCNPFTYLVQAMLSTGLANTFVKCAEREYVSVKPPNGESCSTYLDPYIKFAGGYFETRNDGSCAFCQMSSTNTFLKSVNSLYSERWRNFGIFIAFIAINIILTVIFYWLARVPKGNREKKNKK

Substance | tested on | test | test system | setting | scale | endpoint | result
human ME2 R91A | – | enzyme activity, NADH absorbance | – | without fumarate, together with: L-malate varied | – | Hill coefficient | 1 ± 0.01
BzATP | P2X purinoceptor 7 (P2rx7, Rattus norvegicus, UniProt Q64663, I214A) | ion current, agonist, two-electrode voltage clamp | Xenopus oocytes | 100 µM | – | normalized current | 0.971 and 1 and 0.921
B1 (human desmocollin-1) | PP6C (human) | co-immunoprecipitation, IP-MS | CYB5R4 knockout cells | concentration not given | baseline: CYB5R4 knockout over parental | log2 fold change | 0.58
11-deoxycorticosterone | CYP11B2 (human) | substrate binding, stopped-flow global kinetic fitting | purified enzyme | 3-state conformational selection model, together with: 40-fold excess adrenodoxin | – | rate constant k-1 | 2.09 ± 0.121 s⁻¹
KEAFWDRCLSVINGMSSKMLQINA | CDK5 with p25 | phosphotransferase activity, radiometric | peptide | concentration not given, 10% DMSO, together with: histone substrate | baseline: p5-WT peptide | activity change | 45%
milbemycin oxime | CDR1 (Candida albicans, UniProt Q5ANA3) | binding, microscale thermophoresis | – | 156 nM | – | fraction bound | 37.9%
KEAFWDRCLSVINLCSSKMLQINA | CDK5 with p25 | phosphotransferase activity, radiometric | peptide | concentration not given, 10% DMSO, together with: histone substrate | baseline: p5-WT peptide | activity change | 58%
human ME2 T76N | – | enzyme activity, NADH absorbance | – | with fumarate 3 mM, together with: L-malate varied | – | Hill coefficient | 1.08 ± 0.03
KEAFWDRCLSVINLASSKMLQINA | CDK5 with p25 | phosphotransferase activity, radiometric | peptide | concentration not given, 10% DMSO, together with: histone substrate | baseline: p5-WT peptide | activity change | 60%
human ME2 E90D | – | enzyme activity, NADH absorbance | – | with fumarate 3 mM, together with: L-malate varied | – | Hill coefficient | 1.04 ± 0.03
human annexin A2 | PP6C (human) | co-immunoprecipitation, IP-MS | CYB5R4 knockout cells | concentration not given | baseline: CYB5R4 knockout over parental | log2 fold change | 0.1
